Measurements pooled from the literature.
A part holds a random share of what one study measured. Changes are numbered by the printed parent chain.

Sample 1
Target: Sox-I, HMG box (Salpingoeca helianthica)
Technique: Spec-seq
Form: double-stranded DNA, one strand shown
Medium: in vitro
Tested at: not given
Notes: whole probe, mean of replicates
Baseline: not given
Reading: lower = stronger binding
Endpoint: relative binding energy
Constant ends, left off below: GAGTCGTCTCGTCAGCAC … CCGTAGAGCACTCAGGTC
Construct (chain): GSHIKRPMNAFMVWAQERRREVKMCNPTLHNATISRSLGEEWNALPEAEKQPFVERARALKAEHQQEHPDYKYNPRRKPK
CATAGCA: 0.191 ln ratio
CATCACT: 0.273 ln ratio
CATCAGA: 0.834 ln ratio
CATGAGG: 1.14 ln ratio
CAATGTT: -0.105 ln ratio
CATGGAA: 1 ln ratio
CATCTCG: 1.07 ln ratio
CATCTGT: 0.346 ln ratio
CACTGTT: -0.725 ln ratio
CGTGGTT: 1.03 ln ratio
CATGATG: 0.813 ln ratio
CATTAGC: 0.874 ln ratio
CATTTCA: 0.777 ln ratio
TGAGGTT: 0.576 ln ratio
TCTGGTT: 0.678 ln ratio
GACAGTT: 0.449 ln ratio
CATCAAC: 0.413 ln ratio
CATTACG: 0.671 ln ratio
CATTGAA: 0.372 ln ratio
CATTGAG: 0.552 ln ratio

Sample 2
Target: RNA binding protein fox-1 homolog 2, RRM domain, GST-SBP tag (RBFOX2, Homo sapiens, UniProt O43251-10, residues 100-194)
Technique: RNA Bind-n-Seq
Form: RNA
Medium: in vitro
Tested at: 365 nM
Notes: natural RNA segment, single round, ends assumed
Baseline: no-protein control
Reading: higher = stronger binding
Endpoint: RBNS enrichment (R)
Constant ends, left off below: GGGAGUUCUACAGUCCGACGAUC … UGGAAUUCUCGGGUGCCAA
Construct (chain): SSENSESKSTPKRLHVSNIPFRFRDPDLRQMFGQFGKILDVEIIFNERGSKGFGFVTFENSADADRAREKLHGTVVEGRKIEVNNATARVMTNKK
UAAGUGUCCAGGCUCAGAGCUGGUGAAAACCCUUCUGUUGGGCGUGUGCAGGGUUAAACUCCUGAAGUAACUUGUGAGGACUUCAGUGCUUGCUGGUGUCCUGGGCAGCA: 10.2
GCCCGUCACUUCAGUGUAGCAGAUGCCAGCAGGGUCCUGGAACAACUACAGAGGGAUUAUGACAGGUCCUUGAGCCGCCUAACACUGGAUGACAUCGAACGUUUGGCCAG: 0.439
UCCUGGGGUUGGUAUGUAGGAGGUCUAUCCUGCAGAAUAAGUUGAUACAUUAGUACCUGAUUUCAUAUCUUACAUAUUUAUUUGAGCUGAACAUUAGUUUGUAGUGUAAC: 0.519
UUUCGGGAUUCCCAUCCGUCCUGGCGAUCCUGCCAGCAGUGGGUGGGCAGCCUGAGCUCCCUCGGGCUCGCCUGCCAGCCUGGAGUUCUUCCUGUGCUCCUUGAUCACCU: 0.168
CCUUUCUGCUUCGGGCAGCCUGGACUCCAGCCCUGAGUAUAGAGGCGGUGUGGAUGGCUGGCCCUCAUCCUACCUGUGUCUUUAUUGCUUUGAUCACCACAGUCUCUAAC: 0.644
AAGCAAGCAAAAUGCAAACCAAACCAUUAUUCAUUUAUUGGCUUAAGUAUGCUUUCUCCUGAAAACUUUAGCAUUGGGUGCAAAUAUUCAGUAUGGUUCUCGGAGUCCAA: 0.339
UAGUUUAAAGCCUGCAGUAAAGGUACUCAGAUUUAUGGCUUUCAUGACUAACACUAAACACAUCAGCCAACAAUGUACCAAGAAAACAUGAUUUUAUGAAACAGAAUGUC: 0.485
UAAAACUGUUAUUUUUUUUUCACGAUGUGAAACUGAAGGUCAAUAAAUUAUUAGAGAUUUUCUCUUCAUUGUAUUGUGAGUUUUUAUUUGACAGCAAUGAAAAUUUUGGA: 0.392
GAUUUCCUCUACCUUUUUGCUCUUAAAACUGCUUCUCUGCUCUGAGAAGCACAGCUACCUGCCUUCACUGAAAUAUACCUCAGGCUGAAAUUUGGGGUGGGAUAGCAGGU: 0.321
AACAGACCAACUGCAUGUGUGUCUGUAGGUCUCAGUUUCCACAUUCAUACAGUGAGGGUGUUAAGUCAGGUAGCUGGAGACUUCCCAUCGCCUCUGACACUUUUGGAGGU: 7.23
AUGGUGAAAACUGUGGGAAGGGUUUUUUUUUUUAAUUUCAACAAAAGAAAAAGUGACCAUCUUACCUGUCAUUCAGAAUGCAAGCUAACAUCAUCCCUGUAAGCAGAGAG: 0.324
GUAGGAGCCCCUAGUGGGGCUGGUGGACAGCUUUGGAAGAGGUGUCCUGCUGCUGUUACCAGCCAUGUGGGCCCCAUAGGGGCACUGCGCCUGCUGCCCUUUCCUGGCAG: 1.03

Sample 3
Target: CCND2, cyclin fold, Cln2 fusion (human)
Technique: yeast growth competition, sequencing
Medium: yeast
Notes: weak parent motif
Baseline: not given
Reading: higher = stronger binding
Endpoint: normalised enrichment score
Starting sequence: PKMYT1 docking peptide (human); SFEPRNLLSLFED; partner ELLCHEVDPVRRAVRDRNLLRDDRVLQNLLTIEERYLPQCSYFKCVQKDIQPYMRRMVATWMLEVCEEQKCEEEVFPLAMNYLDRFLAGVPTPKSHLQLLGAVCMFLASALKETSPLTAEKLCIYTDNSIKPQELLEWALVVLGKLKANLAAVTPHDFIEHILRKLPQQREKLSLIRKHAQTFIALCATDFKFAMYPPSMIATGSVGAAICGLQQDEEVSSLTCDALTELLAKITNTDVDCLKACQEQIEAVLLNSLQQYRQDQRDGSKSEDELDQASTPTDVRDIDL
F11C: -0.148
L7W: 0.144
L8K: 0.128
S1K: -0.116
E3V: 0.317
E3D: 0.191
F2S: -0.0632
E3K: 0.0844
P4H: 0.0426
L7N: -0.0235
N6E: -0.0426
L7K: -0.498
L10T: 0.124
R5Y: 0.325
P4G: -0.119
E12N: 0.277
F2P: 0.0907
L10Q: 0.135
F2R: 0.175
L10K: -0.0483
F11T: 0.127
E12S: 0.0117
L8V: -0.325
N6V: -0.0756
S9T: 0.0725

Sample 4
Target: Interferon regulatory factor 5, full length, phosphomimetic (IRF5, Homo sapiens, UniProt Q13568-2, residues 1-514, K96S/S451D/S453D/S456D/S462D)
Technique: protein-binding microarray
Form: double-stranded DNA, one strand shown
Medium: in vitro
Tested at: 250 nM
Notes: 60-bp whole probe
With: salmon DNA 0.4 mg/ml
Baseline: random background probes
Reading: higher = stronger binding
Endpoint: log fluorescence
Constant ends, left off below: GCCTAGCAC … GTCTTGATTCGCTTGACGCTGCTG
TCTAATTAGAATTTAAAACAGTGCTAG: 0.482 z-score
GACGGTCTCCTTATCCTCACGTGCTAG: 0.0677 z-score
TTAGATTTCAGTATCGCTTAGTGCTAG: 5.05 z-score
TTAGGACTGCTTTTCATTTAGTGCTAG: 0.604 z-score
TCATGGCTGACTTTGGAACTGTGCTAG: -0.392 z-score
GGCGGACTGCTTTTCCTGACGTGCTAG: -0.614 z-score
GACGAACTGAAACTGGAGACGTGCTAG: 1.43 z-score
TTAGGACTGCTGCTCCTTTAGTGCTAG: -0.684 z-score
CTGGTCTCCGGTGTTTCCTAGTGCTAG: -0.162 z-score
GACGGTATCCTTATGCTGACGTGCTAG: -0.0313 z-score
GACGAACTGGGGTATCGATACGTGCTA: 2.87 z-score
CTTTTTTTGGTAATAGTGAAGTGCTAG: 1.3 z-score
AACTTTCTCTGCTCTTTTCAAGTGCTA: 3.25 z-score
TTAGGTTTCGGTATCGGTTGGTGCTAG: 10.6 z-score
GACGGTATCGACCTTCGGGACGTGCTA: 1.4 z-score
GACGGTGTCGGTTTCGGGACGTGCTAG: 3.33 z-score

Sample 5
Target: ABI1, truncated, D143A, DHFR fusion (Arabidopsis thaliana)
Technique: DHFR PCA, deep sequencing
Medium: yeast
Notes: methotrexate growth selection, single substitutions
With: (+)-ABA 200 µM
Baseline: wild-type fitted maximum
Reading: higher = stronger binding
Endpoint: relative binding score
Starting sequence: PYL1, truncated, DHFR fusion (Arabidopsis thaliana); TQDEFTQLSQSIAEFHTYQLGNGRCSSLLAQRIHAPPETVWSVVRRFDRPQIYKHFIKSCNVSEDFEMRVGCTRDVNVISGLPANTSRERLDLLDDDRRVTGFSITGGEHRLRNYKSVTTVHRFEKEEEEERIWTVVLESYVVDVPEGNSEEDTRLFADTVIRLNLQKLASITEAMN
R98T: 84.1%
V40F: -5.38%
I33G: -5.44%
A13I: 92%
E127C: 99.7%
F15P: 6.04%
E4Y: 94.7%
Q10C: 92.3%
F47M: 3.12%
E174D: 76.2%
D48C: 52.3%
C72E: 101%

Other studies, line by line
PhoQ, residues 284 288 289 292 302 303 SVHLDV — fold induction (PhoP, residues 12 14 15 18 19 VQALL (Escherichia coli, UniProt P23836); Sort-seq, refers to: YFP reporter; E. coli; PhoQ-PhoP variant library, with: 10 µM Mg2+; baseline: high Mg2+ state, higher = stronger signaling): 17.6

Excerpt of the above (sample 1):
CAATGTT: -0.105 ln ratio
CATGGAA: 1 ln ratio
CATCTCG: 1.07 ln ratio
CATCTGT: 0.346 ln ratio
CACTGTT: -0.725 ln ratio
CGTGGTT: 1.03 ln ratio
CATGATG: 0.813 ln ratio
CATTAGC: 0.874 ln ratio
CATTTCA: 0.777 ln ratio
TGAGGTT: 0.576 ln ratio
